Results of several laboratories.
Each line is one published result; not all experiments were run side by side. Several values in a cell are separate wells, animals, samples, runs or records.
Sequence of UniProt O75762 (whole entry, looked up): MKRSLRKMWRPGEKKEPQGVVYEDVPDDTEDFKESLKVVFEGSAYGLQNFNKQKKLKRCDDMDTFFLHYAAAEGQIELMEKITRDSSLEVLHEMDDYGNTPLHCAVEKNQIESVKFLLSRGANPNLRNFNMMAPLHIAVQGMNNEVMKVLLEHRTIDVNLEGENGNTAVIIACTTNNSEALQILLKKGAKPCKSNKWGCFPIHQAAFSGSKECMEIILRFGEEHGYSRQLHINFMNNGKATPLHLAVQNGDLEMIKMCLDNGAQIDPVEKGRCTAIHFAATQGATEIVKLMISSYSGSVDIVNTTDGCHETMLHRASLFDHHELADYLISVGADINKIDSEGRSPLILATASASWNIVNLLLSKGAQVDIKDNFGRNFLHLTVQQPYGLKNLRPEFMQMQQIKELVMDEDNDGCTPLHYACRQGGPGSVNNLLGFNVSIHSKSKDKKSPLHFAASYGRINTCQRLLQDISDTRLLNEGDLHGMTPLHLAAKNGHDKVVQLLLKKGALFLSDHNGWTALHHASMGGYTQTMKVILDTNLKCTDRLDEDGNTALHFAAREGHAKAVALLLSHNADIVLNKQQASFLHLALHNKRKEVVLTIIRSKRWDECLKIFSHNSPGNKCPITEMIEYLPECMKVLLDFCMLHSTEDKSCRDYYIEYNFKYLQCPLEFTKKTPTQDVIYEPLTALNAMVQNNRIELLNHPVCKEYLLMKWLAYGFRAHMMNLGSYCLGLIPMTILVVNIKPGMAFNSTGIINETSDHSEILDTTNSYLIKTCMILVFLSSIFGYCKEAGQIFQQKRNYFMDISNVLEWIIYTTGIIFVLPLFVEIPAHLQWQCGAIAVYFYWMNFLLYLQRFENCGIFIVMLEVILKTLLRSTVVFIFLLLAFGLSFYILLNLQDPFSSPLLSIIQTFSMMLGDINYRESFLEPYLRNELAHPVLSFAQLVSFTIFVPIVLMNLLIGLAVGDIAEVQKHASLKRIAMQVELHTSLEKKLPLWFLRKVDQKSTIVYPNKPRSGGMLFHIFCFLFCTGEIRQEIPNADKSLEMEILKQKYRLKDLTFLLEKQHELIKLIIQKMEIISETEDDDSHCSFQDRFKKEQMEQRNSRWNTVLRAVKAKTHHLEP
Sequence of UniProt P41595 (whole entry, looked up): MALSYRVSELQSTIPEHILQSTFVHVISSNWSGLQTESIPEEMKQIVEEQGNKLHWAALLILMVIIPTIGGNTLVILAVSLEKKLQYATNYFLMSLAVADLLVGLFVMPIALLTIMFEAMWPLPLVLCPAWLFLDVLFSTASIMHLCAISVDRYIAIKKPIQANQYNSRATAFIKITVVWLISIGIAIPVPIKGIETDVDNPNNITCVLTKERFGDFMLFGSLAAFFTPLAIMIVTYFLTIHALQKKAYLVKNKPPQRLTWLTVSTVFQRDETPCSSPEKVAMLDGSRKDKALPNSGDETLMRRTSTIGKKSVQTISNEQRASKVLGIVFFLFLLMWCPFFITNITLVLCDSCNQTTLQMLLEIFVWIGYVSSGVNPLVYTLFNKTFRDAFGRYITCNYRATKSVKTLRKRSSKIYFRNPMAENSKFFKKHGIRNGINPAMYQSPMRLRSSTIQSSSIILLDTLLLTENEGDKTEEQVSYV
Sequence of UniProt P22736 (whole entry, looked up): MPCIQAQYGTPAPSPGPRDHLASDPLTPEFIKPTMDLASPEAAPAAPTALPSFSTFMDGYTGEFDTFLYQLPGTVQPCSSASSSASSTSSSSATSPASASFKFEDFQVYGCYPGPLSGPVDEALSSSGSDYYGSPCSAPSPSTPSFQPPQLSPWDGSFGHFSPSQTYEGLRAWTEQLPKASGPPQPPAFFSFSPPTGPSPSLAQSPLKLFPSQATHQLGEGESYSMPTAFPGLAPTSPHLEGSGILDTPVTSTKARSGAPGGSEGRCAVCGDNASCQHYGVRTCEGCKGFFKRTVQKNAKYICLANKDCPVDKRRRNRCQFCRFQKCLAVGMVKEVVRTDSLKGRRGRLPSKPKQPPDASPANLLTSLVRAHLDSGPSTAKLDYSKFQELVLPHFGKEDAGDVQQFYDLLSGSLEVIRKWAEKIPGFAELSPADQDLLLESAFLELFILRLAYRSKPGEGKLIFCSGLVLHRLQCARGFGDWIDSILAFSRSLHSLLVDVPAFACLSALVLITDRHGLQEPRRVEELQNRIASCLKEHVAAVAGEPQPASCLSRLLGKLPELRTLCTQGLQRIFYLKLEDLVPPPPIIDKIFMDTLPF
Sequence of UniProt Q8IW41 (whole entry, looked up): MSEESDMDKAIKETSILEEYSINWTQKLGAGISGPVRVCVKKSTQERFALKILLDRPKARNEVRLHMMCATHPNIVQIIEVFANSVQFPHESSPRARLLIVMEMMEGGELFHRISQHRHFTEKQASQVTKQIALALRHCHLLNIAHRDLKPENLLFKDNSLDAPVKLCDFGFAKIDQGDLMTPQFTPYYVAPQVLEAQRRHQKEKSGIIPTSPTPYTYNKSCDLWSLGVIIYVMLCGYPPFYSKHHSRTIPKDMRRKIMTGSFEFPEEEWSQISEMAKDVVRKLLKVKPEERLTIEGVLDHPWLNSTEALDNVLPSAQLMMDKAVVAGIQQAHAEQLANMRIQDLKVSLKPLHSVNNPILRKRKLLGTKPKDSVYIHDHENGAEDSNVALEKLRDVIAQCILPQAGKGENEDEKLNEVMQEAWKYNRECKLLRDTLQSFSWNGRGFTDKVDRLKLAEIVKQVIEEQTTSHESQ
Sequence of UniProt P0A8T7 (whole entry, looked up): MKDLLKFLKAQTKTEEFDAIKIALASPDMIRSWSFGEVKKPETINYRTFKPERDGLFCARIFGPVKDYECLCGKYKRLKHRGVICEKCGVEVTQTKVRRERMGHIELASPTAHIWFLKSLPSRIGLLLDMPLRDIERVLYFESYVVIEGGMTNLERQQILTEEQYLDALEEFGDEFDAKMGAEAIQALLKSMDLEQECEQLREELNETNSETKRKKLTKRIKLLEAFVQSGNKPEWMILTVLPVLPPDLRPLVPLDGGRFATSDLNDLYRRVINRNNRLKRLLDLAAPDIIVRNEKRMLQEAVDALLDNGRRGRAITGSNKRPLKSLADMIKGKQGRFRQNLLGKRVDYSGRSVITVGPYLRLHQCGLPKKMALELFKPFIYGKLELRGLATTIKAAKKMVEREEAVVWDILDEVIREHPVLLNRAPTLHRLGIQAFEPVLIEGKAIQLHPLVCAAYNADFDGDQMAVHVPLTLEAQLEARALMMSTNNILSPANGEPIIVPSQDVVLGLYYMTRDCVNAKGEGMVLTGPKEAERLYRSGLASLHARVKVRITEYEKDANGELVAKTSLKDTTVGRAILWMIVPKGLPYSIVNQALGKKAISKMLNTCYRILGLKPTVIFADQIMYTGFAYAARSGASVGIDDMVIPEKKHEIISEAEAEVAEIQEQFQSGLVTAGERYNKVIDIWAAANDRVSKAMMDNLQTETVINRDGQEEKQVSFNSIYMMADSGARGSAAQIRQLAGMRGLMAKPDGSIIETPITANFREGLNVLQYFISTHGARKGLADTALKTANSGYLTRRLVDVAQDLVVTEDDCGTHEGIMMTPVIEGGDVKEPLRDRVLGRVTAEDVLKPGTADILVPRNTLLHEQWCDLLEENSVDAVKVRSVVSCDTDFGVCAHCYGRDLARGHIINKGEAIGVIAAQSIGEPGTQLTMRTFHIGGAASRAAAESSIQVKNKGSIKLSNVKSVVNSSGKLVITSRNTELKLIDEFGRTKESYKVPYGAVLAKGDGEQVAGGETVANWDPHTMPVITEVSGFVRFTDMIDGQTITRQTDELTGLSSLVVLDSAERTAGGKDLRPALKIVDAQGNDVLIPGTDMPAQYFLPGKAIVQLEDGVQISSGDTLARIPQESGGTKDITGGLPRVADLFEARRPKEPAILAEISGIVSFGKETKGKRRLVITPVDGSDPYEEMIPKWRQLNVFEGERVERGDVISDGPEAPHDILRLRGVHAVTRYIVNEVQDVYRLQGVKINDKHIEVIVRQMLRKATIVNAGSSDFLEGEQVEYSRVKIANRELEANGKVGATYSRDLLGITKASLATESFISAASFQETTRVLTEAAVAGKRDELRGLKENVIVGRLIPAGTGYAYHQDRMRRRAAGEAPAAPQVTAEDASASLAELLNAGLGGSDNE
Sequence of UniProt O60331 (whole entry, looked up): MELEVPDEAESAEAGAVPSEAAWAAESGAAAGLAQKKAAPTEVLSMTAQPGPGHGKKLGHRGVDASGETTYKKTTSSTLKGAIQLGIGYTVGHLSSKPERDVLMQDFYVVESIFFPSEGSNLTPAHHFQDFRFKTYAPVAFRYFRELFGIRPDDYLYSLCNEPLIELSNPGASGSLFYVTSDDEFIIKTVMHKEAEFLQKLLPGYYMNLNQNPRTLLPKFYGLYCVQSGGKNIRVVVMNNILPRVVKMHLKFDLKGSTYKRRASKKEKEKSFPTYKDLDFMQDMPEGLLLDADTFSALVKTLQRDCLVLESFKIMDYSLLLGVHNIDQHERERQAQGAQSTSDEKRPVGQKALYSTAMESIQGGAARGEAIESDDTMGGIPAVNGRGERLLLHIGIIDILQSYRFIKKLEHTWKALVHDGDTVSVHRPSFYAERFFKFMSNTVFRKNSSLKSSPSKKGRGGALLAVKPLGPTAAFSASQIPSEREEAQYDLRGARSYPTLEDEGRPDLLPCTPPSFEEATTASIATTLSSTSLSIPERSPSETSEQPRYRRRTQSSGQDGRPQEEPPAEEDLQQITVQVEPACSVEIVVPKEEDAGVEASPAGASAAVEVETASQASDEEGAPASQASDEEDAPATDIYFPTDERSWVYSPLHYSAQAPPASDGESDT
Sequence of UniProt Q07011 (whole entry, unmodified, looked up): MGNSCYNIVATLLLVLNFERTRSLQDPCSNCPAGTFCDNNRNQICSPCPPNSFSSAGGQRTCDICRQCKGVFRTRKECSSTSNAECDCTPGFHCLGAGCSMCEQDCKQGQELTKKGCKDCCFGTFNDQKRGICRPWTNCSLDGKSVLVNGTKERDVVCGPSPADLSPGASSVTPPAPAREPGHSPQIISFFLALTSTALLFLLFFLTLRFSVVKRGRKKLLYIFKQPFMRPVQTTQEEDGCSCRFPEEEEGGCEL

| Structure (SMILES) | target | test | system | conditions | how to read | measurement | result |
| --- | --- | --- | --- | --- | --- | --- | --- |
| C[C@@H](c1ccc(-n2cnc3c(N)ncnc32)cc1)N1CCc2nn(C)c(Cc3ccccc3)c2C1=O | Non-receptor tyrosine-protein kinase TYK2, JH1 domain (TYK2, Homo sapiens, UniProt P29597) | KINOMEscan |  | 0.1 µM | reference: DMSO control | remaining binding | 98% |
| CC(C)C(=O)Nc1n[nH]c2cc(-c3cccc(NS(=O)(=O)C4CC4)c3)ccc12 | PIP5K1C (Homo sapiens, UniProt O60331) | ADP-Glo |  | 123 nM, with: 10 µM ATP |  | ADP produced | 2.79 µM |
| [H]/N=C(/N)NCC(=O)O | SLC6A6 (Homo sapiens, UniProt P31641, Y138A) | binding, microscale thermophoresis |  | 500 µM, room temperature, with: 50 nM labelled protein | higher = more binding | normalised MST signal | 0.013 |
| Clc1ccc(C(c2c[nH]c3ccccc23)c2c[nH]c3ccccc23)cc1 | Nuclear receptor subfamily 4 group A member 1 (NR4A1, Homo sapiens, UniProt P22736) | reporter gene, NBRE reporter full-length |  | 10 µM | reference: vehicle | activation | 1.39 fold |
| C[C@H]1O[C@@H](O[C@H]2CC[C@@]3(C)[C@@H](CC[C@]4(C)[C@@H]3C=C[C@]35OC[C@@]6(CCC(C)(C)C[C@H]63)[C@@H](O)C[C@]54C)[C@]2(C)CO)[C@H](O)[C@@H](O[C@@H]2O[C@H](CO)[C@@H](O)[C@H](O)[C@H]2O)[C@H]1O | SIRT1 (Homo sapiens, UniProt Q96EB6) | binding, microscale thermophoresis |  | 198 nM |  | MST normalised fluorescence | 885 a.u. |
| [Ca] | TRPA1 (Homo sapiens, UniProt O75762) | ion current, two-electrode voltage clamp | Xenopus oocytes | 500 µM, -80 mV, with: extracellular Ca2+ | reference: current before Ca2+ addition | potentiation | 15.9 fold change and 3.97 fold change and 34.3 fold change and 5.72 fold change and 2.82 fold change and 0.167 fold change and 3.55 fold change |
| Nc1ncnc2c1ncn2[C@@H]1O[C@H](COP(=O)(O)CP(=O)(O)OP(=O)(O)O)[C@@H](O)[C@H]1O | P2X purinoceptor 1 (P2RX1, Homo sapiens, UniProt P51575, R139A) | calcium influx |  | 10 µM | reference: ionomycin response | calcium influx | 100% |
| C=CC(=O)N1CCC(COCC(=O)N2CCN(c3nc(-c4cnc(N)nc4C(F)F)nc(N4CCOC[C@@H]4C)n3)CC2)CC1 | MAPKAPK5 (Homo sapiens, UniProt Q8IW41) | KINOMEscan |  | 1 µM |  | remaining binding | 100% |
| CCCC[C@@H]1NC(=O)[C@H](Cc2ccc(O)cc2)NC(=O)[C@@H]2CCCN2C(=O)[C@H](CC(=O)O)NC(=O)[C@H](C)NC(=O)[C@H](Cc2ccccc2)NC(=O)[C@@H]2CSCCC(=O)N3CN(CN(C3)C(=O)CCSC[C@@H](C(=O)N[C@@H](C)C(N)=O)NC1=O)C(=O)CCSC[C@H](NC(=O)[C@H](C)NC(C)=O)C(=O)N[C@@H]([C@@H](C)CC)C(=O)N[C@@H](CCC(=O)O)C(=O)N[C@@H](CCC(=O)O)C(=O)N[C@H](CCCCNC(=O)CCc1cn(CCOCCOCCOCCN(CCOCCOCCOCCC(=O)N[C@H]3CSCCC(=O)N4CN5CN(C4)C(=O)CCSC[C@H](NC(=O)[C@@H](CC(=O)O)NC(=O)[C@H](Cc4cccc6ccccc46)NC(=O)[C@@H]4CCCN4C3=O)C(=O)N[C@@H](CCSC)C(=O)N[C@@H](CCCCNC(=N)N)C(=O)N[C@@H](CC(=O)O)C(=O)N[C@@H](Cc3c[nH]c4ccccc34)C(=O)N[C@@H](CO)C(=O)N[C@@H]([C@@H](C)O)C(=O)N3CCC[C@H]3C(=O)N3C[C@H](O)C[C@H]3C(=O)N[C@@H](Cc3c[nH]c4ccccc34)C(=O)N[C@H](C(N)=O)CSCCC5=O)CCOCCOCCOCCn3cc(CCC(=O)NCCCC[C@H]4NC(=O)[C@H](CCC(=O)O)NC(=O)[C@H](CCC(=O)O)NC(=O)[C@H]([C@@H](C)CC)NC(=O)[C@@H](NC(=O)[C@H](C)NC(C)=O)CSCCC(=O)N5CN6CN(C5)C(=O)CCSC[C@H](NC(=O)[C@H](Cc5ccc(O)cc5)NC(=O)[C@H](CCC(N)=O)NC4=O)C(=O)N[C@@H](Cc4ccccc4)C(=O)N[C@@H](C)C(=O)N[C@@H](CC(=O)O)C(=O)N4CCC[C@H]4C(=O)N[C@@H](Cc4ccc(O)cc4)C(=O)N[C@@H](CCCC)C(=O)N[C@H](C(=O)N[C@@H](C)C(N)=O)CSCCC6=O)nn3)nn1)C(=O)N[C@@H](CCC(N)=O)C(=O)N[C@@H](Cc1ccc(O)cc1)C(=O)N2 | Tumor necrosis factor receptor superfamily member 9/Nectin-4 (Homo sapiens, UniProt Q07011+Q96NY8) | reporter gene, agonist | HT-1376 coculture with reporter cells |  | reference: background | Emax | 46 fold |
| CC(C)[C@@H](Nc1nc(I)nc2c1ncn2[C@H]1[C@H](O)[C@H](O)[C@]2(C#N)C[C@H]12)C1CC1 | HTR2B (Homo sapiens, UniProt P41595) | radioligand binding |  | with: [3H]LSD | reference: 4′-cyano over 4′-CH2OH analogue | affinity gain | 5.3 fold and 5 fold |
| Cc1ncsc1-c1ccc(CNC(=O)[C@@H]2C[C@@H](O)CN2C(=O)[C@@H](NC(=O)C2(F)CC2)C(C)(C)C)c(OCCOCCOCCN2CCN(c3cc(-c4ccccc4O)nnc3N)CC2)c1 | Protein polybromo-1, BD5 (PBRM1, Homo sapiens, UniProt Q86U86) | ternary complex binding, TR-FRET competition |  | with: VCB complex |  | cooperativity factor alpha | 6.8 |
| Nc1ccn([C@@H]2O[C@H](COP(=O)(O)OP(=O)(O)OP(=O)(O)O)C[C@H]2O)c(=O)n1 | DNA-directed RNA polymerase subunit beta' / DNA-directed RNA polymerase subunit beta (rpoC/rpoB, Escherichia coli, UniProt P0A8T7+P0A8V2) | RNA extension, denaturing gel | Escherichia coli, elongation complex, 6-MI template | 5 µM, 10 min, 25 °C |  | incorporation efficiency | 84% |

A few entries again:
| Structure (SMILES) | target | test | system | conditions | how to read | measurement | result |
| --- | --- | --- | --- | --- | --- | --- | --- |
| Nc1ncnc2c1ncn2[C@@H]1O[C@H](COP(=O)(O)CP(=O)(O)OP(=O)(O)O)[C@@H](O)[C@H]1O | P2X purinoceptor 1 (P2RX1, Homo sapiens, UniProt P51575, R139A) | calcium influx |  | 10 µM | reference: ionomycin response | calcium influx | 100% |
